Results collected from several papers.
Several values in a cell are separate wells, animals, samples, runs or records. ± marks the error that the study gave.

Chains of the proteins cited; added tags and fusions are not shown. Residues count along the entry.
UniProt Q9H3N8, whole entry: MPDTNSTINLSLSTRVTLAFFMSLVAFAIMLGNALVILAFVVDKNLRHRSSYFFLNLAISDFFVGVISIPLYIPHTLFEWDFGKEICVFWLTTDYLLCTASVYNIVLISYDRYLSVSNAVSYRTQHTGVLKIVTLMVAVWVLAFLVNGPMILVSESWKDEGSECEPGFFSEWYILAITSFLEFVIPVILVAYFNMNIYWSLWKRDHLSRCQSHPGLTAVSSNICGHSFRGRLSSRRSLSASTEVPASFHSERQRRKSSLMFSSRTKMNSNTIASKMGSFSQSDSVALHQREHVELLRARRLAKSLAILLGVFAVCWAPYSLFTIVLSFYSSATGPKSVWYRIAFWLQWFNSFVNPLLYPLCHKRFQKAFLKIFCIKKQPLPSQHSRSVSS
UniProt P52333, 812-1124 limits assumed: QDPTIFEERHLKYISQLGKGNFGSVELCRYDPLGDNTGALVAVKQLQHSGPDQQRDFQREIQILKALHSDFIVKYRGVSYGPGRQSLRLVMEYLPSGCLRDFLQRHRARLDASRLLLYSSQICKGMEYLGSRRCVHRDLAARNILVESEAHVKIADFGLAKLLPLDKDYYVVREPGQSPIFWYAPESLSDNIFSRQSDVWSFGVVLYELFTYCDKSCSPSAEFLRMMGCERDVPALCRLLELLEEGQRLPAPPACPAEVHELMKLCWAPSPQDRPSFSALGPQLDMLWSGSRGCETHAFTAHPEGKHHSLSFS

Compound	tested on	assay	system	setting	scale	endpoint	result
O=C(O)C(O)=CC(=O)C1(Cc2ccc(Cl)cc2)CCN(Cc2ccc3ccccc3c2)CC1	VeroE6-TMPRSS2	–	–	–	–	CC50	> 50 µM
[11CH3]Nc1ccc(C(=O)C2CCN(C3Cc4ccccc4CC3O)CC2)cc1 (single isomer, unassigned)	–	–	Sprague-Dawley rat, thalamus	30 min	–	uptake	0.293 %ID/g
O=C(Nc1ccccc1OS(=O)(=O)c1ccc(OC(F)(F)F)cc1)c1cnccn1	HEK-293T	MTT	–	100 µM, 24 h	baseline: untreated	viability	82.2 ± 0.89%
Cc1ccc(S(=O)(=O)Nc2cccc(C(=O)NC3CCN(c4ncnc5[nH]cnc45)CC3)c2)cc1Cl	A549-ACE2	–	–	2.469 µM	–	viability	98.5%
NCCNCCSc1ccccc1	–	ultrafiltration	mouse plasma, female	25 µg/mL, 60 min, 37 °C	–	unbound concentration	18860 ± 90 ng/mL
O=C[C@@H]1CCC(=O)NCCCn2cc(nn2)C[C@H](NC(=O)OCc2ccccc2)C(=O)N[C@@H](CC2CCCCC2)C(=O)N1	HG23	crystal violet staining	–	1 to 100 µM, 48 h	–	CC50	> 100 µM
CC(CCN[C@H](CN[C@H](CO)CN1CCC[C@H]1CN[C@H](CN)c1ccccc1)c1ccccc1)c1ccccc1 (stereo partly drawn)	Escherichia coli	bacterial growth	–	8 µM, fold shift of IC50, added: amikacin	–	potentiation of amikacin	2.1 fold
O=C(NCc1ccccc1)C1C(=O)N(O)C(=O)c2cc([N+](=O)[O-])ccc21 (stereo not drawn)	VeroE6-TMPRSS2	–	–	–	–	CC50	> 50 µM
COc1ccc(S(=O)(=O)Nc2cccc(C(=O)NC3CCN(c4ncnc5[nH]cnc45)CC3)c2)cc1	A549-ACE2	–	–	0.2743 µM	–	viability	107%
C[C@H](CS)C(=O)N[C@@H](Cc1c[nH]c2ccccc12)C(=O)O	Klebsiella pneumoniae	–	IMP-1 producing	50 µM, added: meropenem	–	MIC of meropenem	8 µg/mL
CCCCCCCCCC(=O)c1cc[nH]c1	murine 3T3 fibroblasts	optical microscopy	–	–	–	maximum tolerated concentration	≤ 23 µM
COCn1cc(-c2cc([C@@H](C)NC(=O)c3cc(OCCN(C)C)ccc3C)c3ccccc3n2)cn1	Vero E6 cells	–	–	250 µM	–	viability	11.1% and 7.58%
CC(C)C[C@@H](NC(=O)[C@H](NC(=O)[C@H]1CCCN1)[C@H](C)O)C(=O)N[C@H](Cc1c[nH]cn1)C(=O)N[C@@H](C(=O)N[C@H](Cc1c[nH]cn1)C(=O)N[C@H](CC(N)=O)C(=O)N[C@H](CCCNC(=N)N)C(=O)N[C@H](CCCNC(=N)N)C(=O)N[C@H](CCCNC(=N)N)C(=O)N[C@H](CCCNC(=N)N)C(=O)N[C@H](CCCNC(=N)N)C(N)=O)[C@H](C)O	–	adverse events, phase I single ascending dose	healthy male subjects	36 mg, grade 2	–	incidence of headache	16.7%
COc1cccc(-c2cc(NC(=O)Nc3ccc(C(F)(F)F)cc3)ccc2OC)c1	Caco-2	–	–	–	–	efflux ratio	0.092 ± 0.03
O=C(O)C(O)=CC(=O)C1(Cc2ccc(Cl)cc2)CCN(C(=O)OCc2ccccc2)CC1	VeroE6-TMPRSS2	–	–	–	–	CC50	> 50 µM
CC[C@H](C)[C@H](NC(=O)[C@H](CCCNC(=N)N)NC(=O)[C@H](Cc1ccccc1)NC(=O)[C@H](Cc1cnc[nH]1)NC(=O)[C@@H](NC(=O)[C@H](Cc1ccccc1)NC(=O)[C@H](CC(C)C)NC(=O)[C@H](CC(C)C)NC(=O)[C@H](CCC(N)=O)NC(=O)[C@H](CCC(N)=O)NC(=O)[C@H](CC(C)C)NC(C)=O)[C@@H](C)CC)C(=O)NCC(=O)N[C@@H](CCCNC(=N)N)C(=O)N[C@@H](CCCNC(=N)N)C(=O)N[C@@H](CCCNC(=N)N)C(=O)N[C@@H](CCCNC(=N)N)C(=O)N[C@@H](CCCNC(=N)N)C(=O)N[C@@H](CCCNC(=N)N)C(=O)N[C@@H](CCCNC(=N)N)C(=O)N[C@@H](CCCNC(=N)N)C(N)=O	MT4 Luc	cell viability, luciferase signal decrease	–	–	–	cytotoxic concentration	10 µM
O=C(O)C(O)=CC(=O)c1ccc2cc(O)c(O)cc2c1	VeroE6-TMPRSS2	–	–	–	–	CC50	> 50 µM

Compound	tested on	assay	system	setting	scale	endpoint	result
COc1ccc(CN[C@@H]2CO[C@H](C(c3ccccc3)c3ccccc3)C[C@H]2O)cc1	Histamine H4 receptor (HRH4, Homo sapiens, UniProt Q9H3N8)	radioligand binding	–	10 µM, added: [3H]histamine	–	inhibition	-13.7%
C=CC(=O)Nc1cc(-n2c(=O)ccc3cnc4ccc(-c5cn[nH]c5)cc4c32)ccc1C	Tyrosine-protein kinase JAK3 (JAK3, Homo sapiens, UniProt P52333)	KinomeScan binding	–	1 µM	–	remaining binding	0%
O=C(O)C(O)=CC(=O)C1(Cc2ccc(Cl)cc2)CCN(C(=O)C=Cc2ccccc2)CC1	VeroE6-TMPRSS2	–	–	–	–	CC50	> 50 µM
COc1ccc2c3c([nH]c2c1)[C@H](CC(C)C)N1C(=O)[C@H](CC(=O)OCc2ccccc2)NC(=O)[C@@H]1C3	A549	MTT	–	–	–	CC50	49.9 µM and 46.6 µM and 52.2 µM
Cc1ccc2nc(-c3ccc4nc(-c5ccc(NC(=O)c6cccc(Cl)c6)cc5)sc4c3)sc2c1S(=O)(=O)O	Fa2N-4 immortalized hepatocytes	–	–	–	–	CC50	> 50 µM
COc1cc2c(N(C)C)nc(NCCCN(C)C)nc2cc1OCCCCCN	mouse primary fibroblasts	cytotoxicity, CCK-8	–	24 h	–	CC50	45.8 µM
CN1CC[C@]23c4c5ccc(O)c4O[C@H]2c2ncc(-c4ccc(Cl)cc4)cc2C[C@@]3(OCCCc2ccccc2)[C@H]1C5	–	–	CD-1 mouse neuropathy model	sc, 3.2 mg/kg, naltrindole 5 min before, added: naltrindole 10 mg/kg ip	–	time to zero efficacy	2.9 days
Cc1ccccc1S(=O)(=O)Nc1cccc(C(=O)NC2CCN(c3ncnc4[nH]cnc34)CC2)c1	A549-ACE2	–	–	200 µM	–	viability	80%
NC[C@@H](NC[C@@H]1CCCN1C[C@@H](CO)NC[C@@H](NCCC1CC2CCC1C2)c1ccccc1)c1ccccc1 (stereo partly drawn)	Klebsiella pneumoniae	bacterial growth	–	8 µM, fold shift of IC90, added: amikacin	–	potentiation of amikacin	1 fold
C[C@]12CCC3=C(C(=O)c4occ5c4[C@]3(C)[C@H]3O[C@H]3C5=O)[C@@H]1CCC2=O	MDA-MB-231	cytotoxicity	–	–	–	IC50	0.0091 µM
Cc1ccc(OCCN(C)C)cc1C(=O)N[C@H](C)c1cc(-c2ccn(C)n2)nc2ccccc12	Vero E6 cells	–	–	15.62 µM	–	viability	104% and 101%
O=C(NC1CCN(c2ncnc3[nH]cnc23)CC1)c1cccc(NS(=O)(=O)c2ccc(Cl)cc2)c1	A549-ACE2	–	–	0.09145 µM	–	viability	103%
CN1C(=O)CCc2cc(C(=O)NCC=CS(C)(=O)=O)ccc21	MRC-5	cytotoxicity	–	–	–	IC50	> 10 µM
CC1(C)CC[C@]2(C(=O)O)CC[C@]3(C)C(=CC[C@@H]4[C@@]5(C)CC[C@H](OC(=O)NCc6ccccc6)C(C)(C)[C@@H]5CC[C@]43C)[C@@H]2C1	–	–	C57BL/6 mice, plasma	intraperitoneal, 85 µmol/kg	–	Tmax	1 h
NC1CSC2(SC1)C1CC3CC(C1)CC2C3 (stereo not drawn)	MDCK	cytotoxicity	–	–	–	CC50	74.8 ± 1.2 µM
Cc1cc(SCc2sc(-c3ccc(C(F)(F)F)c(F)c3)nc2C)ccc1OCc1nn[nH]n1	HEK293T	–	–	18 h	–	CC50	> 33 µM

Some of these lines once more:
Compound	tested on	assay	system	setting	scale	endpoint	result
O=C(O)C(O)=CC(=O)c1ccc2cc(O)c(O)cc2c1	VeroE6-TMPRSS2	–	–	–	–	CC50	> 50 µM
COc1ccc(CN[C@@H]2CO[C@H](C(c3ccccc3)c3ccccc3)C[C@H]2O)cc1	Histamine H4 receptor (HRH4, Homo sapiens, UniProt Q9H3N8)	radioligand binding	–	10 µM, added: [3H]histamine	–	inhibition	-13.7%
C=CC(=O)Nc1cc(-n2c(=O)ccc3cnc4ccc(-c5cn[nH]c5)cc4c32)ccc1C	Tyrosine-protein kinase JAK3 (JAK3, Homo sapiens, UniProt P52333)	KinomeScan binding	–	1 µM	–	remaining binding	0%
O=C(O)C(O)=CC(=O)C1(Cc2ccc(Cl)cc2)CCN(C(=O)C=Cc2ccccc2)CC1	VeroE6-TMPRSS2	–	–	–	–	CC50	> 50 µM
